Published values gathered from unrelated publications.
Lines come from different studies, so protocols differ. ≈ marks a conversion by molar mass, not a printed value.
UniProt P05182, sequence (whole entry, looked up): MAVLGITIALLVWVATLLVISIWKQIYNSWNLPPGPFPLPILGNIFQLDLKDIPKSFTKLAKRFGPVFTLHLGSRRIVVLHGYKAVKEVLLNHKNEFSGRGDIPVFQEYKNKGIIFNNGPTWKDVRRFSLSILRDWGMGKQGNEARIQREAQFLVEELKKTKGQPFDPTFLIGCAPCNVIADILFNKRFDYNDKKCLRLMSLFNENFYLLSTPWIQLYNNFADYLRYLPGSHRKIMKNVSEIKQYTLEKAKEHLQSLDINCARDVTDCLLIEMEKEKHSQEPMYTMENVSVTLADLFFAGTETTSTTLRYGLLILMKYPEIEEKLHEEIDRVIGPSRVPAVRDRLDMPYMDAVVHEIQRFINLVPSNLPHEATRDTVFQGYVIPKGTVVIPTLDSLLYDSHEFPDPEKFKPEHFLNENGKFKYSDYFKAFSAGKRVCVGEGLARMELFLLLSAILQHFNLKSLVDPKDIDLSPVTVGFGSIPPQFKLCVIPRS
UniProt Q9UQ88, sequence (whole entry, looked up): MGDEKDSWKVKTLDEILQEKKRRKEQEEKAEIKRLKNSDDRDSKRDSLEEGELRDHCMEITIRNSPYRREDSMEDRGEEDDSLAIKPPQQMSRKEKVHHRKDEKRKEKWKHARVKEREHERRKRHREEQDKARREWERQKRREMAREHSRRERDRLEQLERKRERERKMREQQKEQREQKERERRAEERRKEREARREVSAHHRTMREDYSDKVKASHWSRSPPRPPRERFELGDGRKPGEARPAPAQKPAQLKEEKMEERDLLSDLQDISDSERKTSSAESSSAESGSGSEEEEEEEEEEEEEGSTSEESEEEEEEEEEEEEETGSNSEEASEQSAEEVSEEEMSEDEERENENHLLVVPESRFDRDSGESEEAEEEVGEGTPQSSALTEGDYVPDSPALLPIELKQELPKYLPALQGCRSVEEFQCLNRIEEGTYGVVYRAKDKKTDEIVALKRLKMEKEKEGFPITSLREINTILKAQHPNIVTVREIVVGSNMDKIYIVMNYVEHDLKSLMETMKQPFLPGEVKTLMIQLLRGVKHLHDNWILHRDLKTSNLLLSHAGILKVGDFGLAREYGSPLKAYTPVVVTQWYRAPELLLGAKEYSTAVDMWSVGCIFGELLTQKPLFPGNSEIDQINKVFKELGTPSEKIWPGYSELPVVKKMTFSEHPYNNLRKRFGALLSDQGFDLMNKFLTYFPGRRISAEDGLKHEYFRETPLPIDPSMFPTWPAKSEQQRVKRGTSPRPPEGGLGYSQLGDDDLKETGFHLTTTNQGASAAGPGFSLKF
UniProt O33336, sequence (whole entry, looked up): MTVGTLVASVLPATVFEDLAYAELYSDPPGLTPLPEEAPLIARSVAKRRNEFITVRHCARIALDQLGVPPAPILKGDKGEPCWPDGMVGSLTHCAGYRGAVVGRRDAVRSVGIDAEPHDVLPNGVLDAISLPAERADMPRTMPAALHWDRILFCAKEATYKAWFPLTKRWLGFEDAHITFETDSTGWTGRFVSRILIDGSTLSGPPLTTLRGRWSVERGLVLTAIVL
UniProt Q96Q40, sequence (whole entry, looked up): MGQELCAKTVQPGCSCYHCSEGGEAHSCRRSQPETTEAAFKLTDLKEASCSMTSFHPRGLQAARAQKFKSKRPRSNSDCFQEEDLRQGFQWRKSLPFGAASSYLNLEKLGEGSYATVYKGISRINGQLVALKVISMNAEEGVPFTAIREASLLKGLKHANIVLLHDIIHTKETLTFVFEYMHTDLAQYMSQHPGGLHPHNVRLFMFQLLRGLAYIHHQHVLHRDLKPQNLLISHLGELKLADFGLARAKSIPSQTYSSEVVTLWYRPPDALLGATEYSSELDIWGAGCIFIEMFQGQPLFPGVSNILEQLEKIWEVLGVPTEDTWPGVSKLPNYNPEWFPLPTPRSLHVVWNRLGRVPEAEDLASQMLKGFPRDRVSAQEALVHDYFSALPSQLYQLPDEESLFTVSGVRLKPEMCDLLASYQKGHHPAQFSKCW
UniProt Q9UPE1, sequence (whole entry, looked up): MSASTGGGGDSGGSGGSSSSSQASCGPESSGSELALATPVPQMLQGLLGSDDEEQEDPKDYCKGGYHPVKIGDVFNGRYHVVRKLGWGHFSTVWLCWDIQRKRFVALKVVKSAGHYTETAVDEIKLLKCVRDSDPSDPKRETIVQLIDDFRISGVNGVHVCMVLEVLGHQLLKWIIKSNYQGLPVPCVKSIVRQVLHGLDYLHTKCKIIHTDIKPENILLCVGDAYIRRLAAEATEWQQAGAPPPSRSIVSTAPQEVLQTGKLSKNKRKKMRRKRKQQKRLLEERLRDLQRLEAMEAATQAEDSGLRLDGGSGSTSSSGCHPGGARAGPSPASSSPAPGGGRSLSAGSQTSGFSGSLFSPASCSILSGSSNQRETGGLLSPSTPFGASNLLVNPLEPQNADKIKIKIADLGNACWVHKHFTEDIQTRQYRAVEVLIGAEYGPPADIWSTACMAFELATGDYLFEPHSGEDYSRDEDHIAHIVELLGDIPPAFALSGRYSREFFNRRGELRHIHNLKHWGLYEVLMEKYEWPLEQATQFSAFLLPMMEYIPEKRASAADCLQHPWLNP
UniProt Q9UF33, sequence (whole entry, looked up): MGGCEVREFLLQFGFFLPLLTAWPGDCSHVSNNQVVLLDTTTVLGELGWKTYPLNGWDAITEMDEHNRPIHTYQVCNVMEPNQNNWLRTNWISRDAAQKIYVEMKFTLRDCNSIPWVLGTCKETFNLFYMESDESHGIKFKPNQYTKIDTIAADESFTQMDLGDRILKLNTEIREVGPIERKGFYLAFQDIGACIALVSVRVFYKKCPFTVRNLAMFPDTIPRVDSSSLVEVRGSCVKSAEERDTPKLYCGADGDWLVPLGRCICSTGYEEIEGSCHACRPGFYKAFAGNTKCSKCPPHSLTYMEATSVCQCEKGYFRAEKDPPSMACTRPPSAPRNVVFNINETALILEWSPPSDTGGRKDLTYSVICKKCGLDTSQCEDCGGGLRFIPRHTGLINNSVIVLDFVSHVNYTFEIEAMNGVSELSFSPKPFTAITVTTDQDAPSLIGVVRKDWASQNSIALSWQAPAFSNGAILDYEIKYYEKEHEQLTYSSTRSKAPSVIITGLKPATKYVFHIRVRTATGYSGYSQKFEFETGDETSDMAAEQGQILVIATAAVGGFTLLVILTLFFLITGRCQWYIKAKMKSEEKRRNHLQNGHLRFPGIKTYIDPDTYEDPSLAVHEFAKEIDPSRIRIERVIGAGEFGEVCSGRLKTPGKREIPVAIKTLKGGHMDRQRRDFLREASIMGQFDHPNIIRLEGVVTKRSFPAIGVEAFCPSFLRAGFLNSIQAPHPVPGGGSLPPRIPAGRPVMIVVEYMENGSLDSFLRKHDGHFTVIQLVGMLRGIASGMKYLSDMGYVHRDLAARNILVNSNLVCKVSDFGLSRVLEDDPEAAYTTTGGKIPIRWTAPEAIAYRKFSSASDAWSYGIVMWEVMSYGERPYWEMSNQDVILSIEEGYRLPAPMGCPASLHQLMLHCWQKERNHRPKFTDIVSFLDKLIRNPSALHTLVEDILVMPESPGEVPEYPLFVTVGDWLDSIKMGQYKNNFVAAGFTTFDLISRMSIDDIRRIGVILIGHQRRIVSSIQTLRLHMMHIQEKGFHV

Compound	tested on	test	system	setting	quantity	result
N#CN=c1[nH]c2ccc(Cl)cc2c(=O)n1Cc1cccnc1	4'-phosphopantetheinyl transferase PptT (Mycobacterium tuberculosis, UniProt O33336)	enzyme activity, inhibitor, FP			IC50	22.4 µM
CONC(=O)[C@H]1[C@@H](O)[C@@]2(O)c3c(OC)cc(OC)cc3O[C@@]2(c2ccc(OC)cc2)[C@@H]1c1ccccc1			aqueous buffer	pH 7.4	kinetic solubility	42 µg/mL (≈ 82.8 µM)
COc1ncccc1-c1cnn2ccc(N3CCN(C(=O)OC(C)C)CC3)nc12	Ephrin type-A receptor 6 (EPHA6, Homo sapiens, UniProt Q9UF33)	binding, competition with immobilised ligand		1 µM	remaining binding	100%
C=CC1CO1 (stereo not drawn)	Cytochrome P450 2E1 (Cyp2e1, Rattus norvegicus, UniProt P05182)	enzyme activity, inhibitor	rat, liver microsomes		IC50	98 µM
N.N.[Cl][Pt][Cl]	L-82	cell growth or viability, ATP luminescence		10 µM, 72 h	inhibition	100%
CN[C@@H]1C[C@H]2O[C@@](C)([C@@H]1OC)n1c3ccccc3c3c4c(c5c6ccccc6n2c5c31)C(=O)NC4	NCI-H1975	cell growth or viability, MTT		25 µg	viability	36.5%
C#Cc1ccc2c(c1)C(c1ccccn1)=NCc1c(-c3cnco3)ncn1-2			water	2 h, 37 °C	kinetic solubility	674 µg/mL (≈ 1920 µM)
O=C1CC[C@H](N2Cc3c(ccc4c3OCC43CCN(C[C@@H]4CCC5(CCN(c6ccc([C@@H]7c8ccc(O)cc8CC[C@@H]7c7ccccc7)cc6)CC5)OC4)CC3)C2=O)C(=O)N1			rat, plasma	intravenous, 1 mg/kg	clearance	9.7 mL/min/kg
CC(C)C[C@H](NC(=O)[C@@H](NC(=O)/C=C/c1ccccc1)C(C)C)C(=O)N[C@H](C=O)C[C@@H]1CCCNC1=O	A549	cell growth or viability, MTT		24 h	CC50	> 100 µM
CC(C)C[C@@H]1NC(=O)[C@H]([C@@H](C)O)NC(=O)[C@H](C(C)C)NC(=O)[C@H](CC(C)C)NC(=O)[C@@H](C(C)C)N(C)C(=O)[C@H]2CCCN2C(=O)[C@@H](N)CSSC[C@@H](C(=O)O)NC(=O)[C@H]2CCCN2C(=O)[C@H](Cc2ccccc2)NC1=O			aqueous buffer	18 h, pH 7.4	thermodynamic solubility	695 µM (≈ 767 µg/mL)
Nc1ncc(-c2nc(N3CCOCC3)nc(N3CCOCC3)n2)c(C(F)F)n1	Cyclin-dependent kinase 11A (CDK11A, Homo sapiens, UniProt Q9UQ88)	binding, competition with immobilised ligand		10 µM	remaining binding	89%
Cc1ccc(/C=C/C(=O)N[C@H](C(=O)N[C@@H](CC(C)C)C(=O)N[C@H](C=O)C[C@@H]2CCCNC2=O)C(C)C)cc1	A549	cell growth or viability, MTT		24 h	CC50	> 100 µM
CC[C@H](C)[C@H]1C(=O)N[C@@H]([C@@H](C)O)C(=O)NCC(=O)NCC(=O)N[C@@H](C)C(=O)N[C@@H](CC(C)C)C(=O)N[C@@H](C(C)C)C(=O)N[C@@H](CC(C)C)C(=O)N2CCC[C@@H]2C(=O)N[C@H](Cc2ccc(O)cc2)C(=O)N[C@H](CC(C)C)C(=O)N1C			aqueous buffer	18 h, pH 7.4	thermodynamic solubility	475 µM (≈ 528 µg/mL)
COCC1=N[C@@]2(O)[C@H](C(=O)N(C)OC)[C@@H](c3ccccc3)[C@]3(c4ccc(OC)cc4)Oc4cc(OC)cc(OC)c4[C@]23N1	A549-ACE2	cell growth or viability, ATP luminescence		48 h	CC50	0.2 µM
CC(C)C[C@H]1NC(=O)[C@@H](N)CSSC[C@@H](C(=O)O)NC(=O)[C@H](Cc2ccccc2)NC(=O)[C@H](C)NC(=O)[C@H]([C@@H](C)O)NC(=O)[C@H]2CCCN2C(=O)[C@@H]2CCCN2C(=O)[C@H](C(C)C)NC(=O)[C@H](CCC(=O)O)NC1=O			aqueous buffer	18 h, pH 7.4	thermodynamic solubility	712 µM (≈ 767 µg/mL)
Cc1nn(C)cc1-c1nc2c(N3CCN(Cc4ccc(Cl)cc4)CC3)c(Cl)cnc2[nH]1	Cyclin-dependent kinase 15 (CDK15, Homo sapiens, UniProt Q96Q40)	binding, competition with immobilised ligand		1 µM	remaining binding	100%
CC[C@H](C)[C@H]1C(=O)N2CCC[C@H]2C(=O)N[C@@H](CO)C(=O)N[C@H]([C@H](C)O)C(=O)N[C@H](Cc2ccc(O)cc2)C(=O)N[C@@H](CC(C)C)C(=O)NCC(=O)N[C@@H](C(C)C)C(=O)N[C@@H](C)C(=O)N[C@@H](Cc2ccccc2)C(=O)N2CCC[C@H]2C(=O)N1C			aqueous buffer	18 h, pH 7.4	thermodynamic solubility	585 µM (≈ 679 µg/mL)
[2H]c1c([2H])c([C@]2([2H])CCCN2C(=O)C(C)(C)Oc2ccc3cn[nH]c3c2)c([2H])c([2H])c1C([2H])([2H])[2H]	SRSF protein kinase 3 (SRPK3, Homo sapiens, UniProt Q9UPE1)	binding, competition with immobilised ligand		1 µM	remaining binding	100%

A few entries again:
Compound	tested on	test	system	setting	quantity	result
CC(C)C[C@@H]1NC(=O)[C@H]([C@@H](C)O)NC(=O)[C@H](C(C)C)NC(=O)[C@H](CC(C)C)NC(=O)[C@@H](C(C)C)N(C)C(=O)[C@H]2CCCN2C(=O)[C@@H](N)CSSC[C@@H](C(=O)O)NC(=O)[C@H]2CCCN2C(=O)[C@H](Cc2ccccc2)NC1=O			aqueous buffer	18 h, pH 7.4	thermodynamic solubility	695 µM (≈ 767 µg/mL)
Nc1ncc(-c2nc(N3CCOCC3)nc(N3CCOCC3)n2)c(C(F)F)n1	Cyclin-dependent kinase 11A (CDK11A, Homo sapiens, UniProt Q9UQ88)	binding, competition with immobilised ligand		10 µM	remaining binding	89%
